# Assay results from different studies.
# Every numbered part comes from another study and shows a few of its results, in no order. Positions count from the first letter of the parent shown.

# Study 1 — target: CCNA2, cyclin fold, Cln2 fusion (human); method: yeast growth competition, sequencing; matrix: yeast; notes: strong parent motif; reference: not given; reading: higher = stronger binding
# Starting sequence: PKMYT1 docking peptide (human); SFEPRNLLSLFED; partner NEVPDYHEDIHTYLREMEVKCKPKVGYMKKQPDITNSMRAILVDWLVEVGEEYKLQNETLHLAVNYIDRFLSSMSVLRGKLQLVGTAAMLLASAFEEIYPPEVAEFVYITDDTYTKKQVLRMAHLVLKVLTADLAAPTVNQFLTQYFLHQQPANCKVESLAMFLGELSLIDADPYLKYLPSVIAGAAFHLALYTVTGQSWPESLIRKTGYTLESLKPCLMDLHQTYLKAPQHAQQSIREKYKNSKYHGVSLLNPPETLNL
Variant,normalised enrichment score
F2W,0.264
R5S,0.202
E12L,1.06
L7N,-0.533
F11M,0.425
S9D,1.74
F11H,-0.315
R5K,2.52
F2K,0.193
L8K,0.00422
D13G,2.65
D13N,2.55
D13C,2.54
R5D,-0.239
L7M,-0.894
F11L,0.734
F2A,0.412

# Study 2 — method: protein-binding microarray; form: double-stranded DNA, one strand shown; matrix: in vitro; tested at: 0.8 µM; notes: whole 60-bp probe, no competitor; reading: higher = stronger binding; all sequences stand within: … GTCTTGATTCGCTTGACGCTGCTG
# Target: Centromere-binding protein 1, full length, N-terminal tag (CBF1, Saccharomyces cerevisiae, UniProt P17106, residues 1-351)
# Sequence of UniProt P17106 (whole entry, looked up): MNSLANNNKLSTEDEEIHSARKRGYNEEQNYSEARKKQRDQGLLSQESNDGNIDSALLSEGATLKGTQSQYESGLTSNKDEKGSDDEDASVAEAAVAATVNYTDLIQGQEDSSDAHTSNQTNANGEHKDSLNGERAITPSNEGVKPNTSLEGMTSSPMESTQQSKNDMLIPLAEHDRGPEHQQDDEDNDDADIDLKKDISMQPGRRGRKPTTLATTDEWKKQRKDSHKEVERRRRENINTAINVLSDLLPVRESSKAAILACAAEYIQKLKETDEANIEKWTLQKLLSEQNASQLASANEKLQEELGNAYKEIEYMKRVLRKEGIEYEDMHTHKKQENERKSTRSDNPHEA
Strand,fluorescence intensity [a.u.]
CTACTCAGAGCGCATCACGATCGGGAGTGTAAATTC,498
GAATGGGAACCGCATGACGTGGCGGCCTTGGCATAG,562
CTAGTAGTATTTTGTCACGTGATTTTGATCCAATTC,30700
GAACTCCTCAGAGGTGTCATCAGAAACACCTCATAG,501
TGTACGAAGCTATGTGATCCAGTTATAGTAGTTAGG,532
GAAAAGCGTGTGTAACATCAAATAAGAGACAATTAG,538
GAACGGCTATCGTATCACATGATAGTCACGTGCTAG,20200
CCTAACTACTATAATGTCGTGATATAGCTTCGTACA,626
CTAAAGAGGATGTGTCACCATGGTAGCAAAGATTTC,529
CTAAAATTTAACAATATGGTGAATTAAGTGTTGTTC,504
GAATTGCAAAAATACAGGGTGATGCGTATAAGTTAG,526
GAATCACAGGCATTCCATGTGATAATGAAATTCTAG,1310
GAAAAGAGCTATAGAGAAGTCACAGGATATAGATAG,751
GAAATTAATCGTTTATACGTGACGTTGACGATGTAG,588
GAAAAATCGGCGGTGATGGTGATGATGAATCATTAG,488
CTAACCTTTTGAAGTGGTGACGTTACCGCTCTTTTC,503
GAAAATTTTAAGCATCACCCGGCATTAGCGTTTTAG,513
CTAGTGACCACAATTCACCCCACAGGTGTGGCTTTC,501
CTACGTATCCTTGTACGCGTGATTTATTTATATTTC,1600
GAAATCATTTGTGCTCGTGAGGCTATGAAATAATAG,611
GAAGAAAACAAACTTGGCGTGACTTGGCGTGGATAG,712
CTACTCAGCTATATCAACATCACGTTCTACCGCTTC,1870
CTACACAATTCAAGTCACGTGGAAAGGCCTTCATTC,15300
CTAAAGACTGACAGTCACGTTGAGTCCTATTATTTC,1310
TGTACGAAGCTATGTTGCATCATTATAGTAGTTAGG,525

# Study 3 — method: DHFR PCA, deep sequencing; matrix: yeast; with: (+)-ABA 200 µM; reference: wild-type fitted maximum; reading: higher = stronger binding
# Target: ABI1, truncated, D143A, DHFR fusion (Arabidopsis thaliana)
# Notes: methotrexate growth selection, single substitutions
# Starting sequence: PYL1, truncated, DHFR fusion (Arabidopsis thaliana); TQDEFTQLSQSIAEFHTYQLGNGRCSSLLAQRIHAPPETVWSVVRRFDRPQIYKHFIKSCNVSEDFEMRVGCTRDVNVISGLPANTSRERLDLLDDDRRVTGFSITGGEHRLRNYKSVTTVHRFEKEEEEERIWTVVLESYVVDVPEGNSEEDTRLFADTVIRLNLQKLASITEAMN
Variant,relative binding score
F15M,84.3%
R46K,87.9%
I79E,85.5%
G71L,41.5%
V100A,102%
N149I,43.2%
T73H,101%
D3E,102%
I172Y,93.7%
E174W,55.5%
S11N,93.8%
Y141Q,3.11%
E152N,92.2%

# Study 4 — method: protein binding microarray; form: double-stranded DNA, one strand shown; matrix: in vitro; tested at: not given; reference: not given; reading: higher = stronger binding
# Target: Histone acetyltransferase KAT6A, winged helix 2, GST fusion (KAT6A, Homo sapiens, UniProt Q92794, residues 85-181)
# Notes: 8-mer, flanks averaged, mean of 2 arrays, mostly near background
# Residues (chain): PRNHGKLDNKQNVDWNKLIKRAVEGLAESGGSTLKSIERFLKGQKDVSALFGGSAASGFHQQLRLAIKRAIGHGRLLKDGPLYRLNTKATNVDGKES
Strand,E-score
ACACTATC,0.00265
GTCCTTGA,-0.0395
TGGCTTAA,-0.0165
ATTCGGTG,0.138
CCCAACTA,0.0565
ACTTTGAG,0.103
CGCTATTC,0.0308
ACATCTAT,-0.012
AGTAAGAA,0.15
TCCCAAAA,0.0817
AACTCGGC,0.0748
GCGGAGCA,0.045
GAAAATAA,0.0928
CCCAATTC,0.158
AGAAACTA,0.0387
CACGAGCA,-0.0109
ATGGATGC,-0.11
ATCCATGC,0.118
AATTGAAG,0.0375
AAATAAGC,0.0101
GTCAAGCA,0.0979
CAGATGTC,-0.121
CCGTATCG,-0.172
AGTATACC,-0.0834
AGCCTTCA,-0.045

# Study 5 — method: RNA Bind-n-Seq; form: RNA; matrix: in vitro; tested at: not given; reference: input RNA pool; reading: higher = stronger binding
# Target: RING finger protein unkempt homolog, zinc fingers 1-6, GST-SBP tag (UNK, Homo sapiens, UniProt Q9C0B0, residues 30-357)
# Notes: RNA with constant flanks, human and mouse sites, ends assumed
# All sequences stand within: GGGAGUUCUACAGUCCGACGAUC … CAACAGAGGAUUGAGCAUCA
# Construct (chain): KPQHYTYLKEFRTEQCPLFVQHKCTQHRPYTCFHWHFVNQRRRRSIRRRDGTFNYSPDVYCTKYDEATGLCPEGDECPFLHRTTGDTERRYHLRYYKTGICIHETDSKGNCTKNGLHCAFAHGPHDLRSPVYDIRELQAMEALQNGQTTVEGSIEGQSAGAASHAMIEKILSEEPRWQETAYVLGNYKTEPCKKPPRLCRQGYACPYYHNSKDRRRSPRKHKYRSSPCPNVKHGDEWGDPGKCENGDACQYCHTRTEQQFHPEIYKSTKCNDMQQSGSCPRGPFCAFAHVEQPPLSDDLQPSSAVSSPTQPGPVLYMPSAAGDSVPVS
Strand,bound/input enrichment
GAGGUCCUGGAGCUGUUUCUCGACCCCGCUUUCUUUCAGAUGGAUACUUCCUGUGUUCAUUGGAAGUCCAUUAUUGACCAUCUUUUGACUCAUGAGAAAACAAUGUUUAAGGAUUUAAUG,0.0763 ratio
GUUUAGAAUUAAUGAAACAGUUGGCGUUCACUGUCAGCAGCAUAGUGUGAUUUUGAAUGAAUUAGGCAGGAAUUCAAGAUUACUACUCUUAGCUCGCUCGCUCUCUCUCUCUCUCCACCG,2.31 ratio
UCUUUUUUUGCUGGGGAUAAAAACGAAGCACAUAAACUAAAGGAGGACUUCCGGCUACACUUUAGGAACAUUUCAAGAAUCAUGGACUGUGUUGGCUGCUUCAAGUGCCGCCUGUGGGGC,1.5 ratio
UUCAUUCAGUGUGGCCAUGCUGUCUGUGUGUGUCCGUGCAAUGGACCAGCAUCGACAGGAGAAGAGUCUGACACAAGGUUUUCACAGAUACAAAAAACCCCUAGGUCUUGAAAUCGUGAC,0.12 ratio
UAUUUUGAUACUCUGUAUGUGUACAUAUAAUUUAACUGUAAUAUGUAUGUUGUAAUAUAUUAUAGAUACUGUACUUGUCAUAUCAAGGGUUCUUGUUGUUAUUAAUUAAGCUUUAAAUGU,0.382 ratio
AGAAAUCAAUGUAAUUUUAAACCUCAGAUGGAUCUUGAAGUUAAAGAAAUUUCUCUAGAUAGUUAUAAUGCGCAGUUGGUGCAAUUAGAAGCUAUGCUAAGAAAUAAGGAAUUAAAACUU,0.422 ratio
UUAAUGCCAAUUGUAUAUACACCGACGGUUGGUCUUGCCUGCUCCCAGUAUGGACACAUCUUUAGAAGACCUAAGGGAUUAUUUAUUUCGAUCUCAGACAGAGGUCAUGUUAGAUCAAUU,2.9 ratio
UCUCGAGUGCGGACGGGAAUCUGGUCGGCUGCCCUGAAUGGAGACCUGGGCCGUGUGAAGUAUUUCAUCCAGAAGGCCACAGACCCUAGCCAGCCAGAUUCUGCCGGCUACACCGCACUG,0.0724 ratio
UUCCUUCUCCACCCCCGCUCUCUCUCUCUUGGCCUGAGAUCUCUGUGCAGGAACCAAGAUGGGGCUGAAGCCUCUGGAGGCAGUUGGUUGGGGGCGGGCAGGCAGGAGGCCCUCCCUCCA,0.31 ratio
GGAGAGGCCCAGGCAGCGGCGGCGGCGGCGGCUCUCGGGUUGCGGUGAAGAAUGUCAGCCACUAGCGUGGAUCAGAGACCUAAAGGGCAAGGAAAUAAAGUUUCAGUACAAAACGGUUCG,0.232 ratio
UGUCACUGUGGGUAUAUCUUAUGCAUGUCAUUCAAUUGGUCAGAUUGGUUCUGUAUGGUUUUUAGUGGGCAUACAAACUAGUUAGUUCUUUUCACUUAAAUUUUAAAGGAGGAAGUUACC,1.12 ratio

# Study 6 — method: RNA Bind-n-Seq; form: RNA; matrix: in vitro; tested at: 20 nM; notes: 6-mer, flanks averaged, single round; with: 150 mM LiCl; reference: input library; reading: higher = stronger binding
# Target: TAR DNA-binding protein 43, full length, His tag (TARDBP, Homo sapiens, UniProt Q13148, residues 1-414)
Strand,6-mer enrichment (R)
CAACUG,0.826
AGAUUG,0.92
GCUUAU,0.975
CCGUAA,0.852
AAUUGC,0.914
GUUUGC,1.25
CAGACG,0.83
ACGUGU,1.12
UCCCCG,1.09
CGUGAA,0.927
UGAUUC,0.877
UGAUGG,1.12
AUGCCU,0.952
GGACUG,1.19

# Mixed results
Substance,target,test,test system,setting,how to read,measurement,value
"PhoQ, residues 284 288 289 292 302 303 TLASMF","PhoP, residues 12 14 15 18 19 NMSFL (Escherichia coli, UniProt P23836)","Sort-seq, refers to: YFP reporter",E. coli,"PhoQ-PhoP variant library, with: 10 µM Mg2+","reference: high Mg2+ state, higher = stronger signaling",fold induction,2.63
